Results collected from several papers.
Every numbered part comes from another study and shows a few of its results, in no order.

Study 1
Target: Fragile X messenger ribonucleoprotein 1, C-terminal low-complexity region (Fmr1, Mus musculus, UniProt P35922)
Method: RNA Bind-n-Seq
Molecule type: RNA
Sample: in vitro
Concentration: 200 nM
Notes: whole 134-nt RNA, ends assumed
Together with: 150 mM LiCl
Baseline: input library
Reading: higher = stronger binding
Library: 7-deaza-guanosine replaces G
Strand | log2 enrichment
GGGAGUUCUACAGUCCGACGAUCUCCUGUGCUACACAUCGUAUGUACCGAAUCGGGGCCCCCGGGGCCCCCGGGGCCCCCGGGAAAGUAUUAUGUUACGCCGUUCGGAUCUGCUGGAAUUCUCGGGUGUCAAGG | 0.455
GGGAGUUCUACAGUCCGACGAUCUGGCCCUGGUGGCAUGCGGGGAGGAAGAGGUGGCCUCAUGGAUCGUGGUGGUCCCGGUGGAAGGUUCAGAGGUGGCCGUGGUGGAGACAGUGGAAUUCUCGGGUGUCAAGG | 0.0456
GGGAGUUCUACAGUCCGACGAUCUCAAGUCCUGUGCUACACAUCGUAUGUACCGAAUCGGGGUUGGGGUUGGGUUGGGAAAGUAUUAUGUUACGCCGUUCGGAUCUGCACUUCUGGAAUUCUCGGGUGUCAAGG | -0.851
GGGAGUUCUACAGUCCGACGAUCACCAUGCAGGUGGGCAUCUUUGGGAAGUGGGGCAAGGGGGGGAUAGGGAGGGGGGUAACACUUUGGGAACAGGUCGUCCCAGGUCGUUUCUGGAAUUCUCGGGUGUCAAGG | 1.73
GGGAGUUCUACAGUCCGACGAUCGUAGCUGCUCCAGUGGGCCCAGUGGGCCCCACUCCUACAGUUUUGCCCAUGGGAGCCCCUGUUCCCCGGCCUCGUGGUCCCCCACCGCCCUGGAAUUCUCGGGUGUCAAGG | 1.12
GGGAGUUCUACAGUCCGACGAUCUUGUGGGAGGAUUUUGAGAUACUUAUUCUUUAUUUGAGCCAGUCUUGCAAGGUUAACUUCUCACUGGGCCUAGUGUGGUGCCCAGGUUUUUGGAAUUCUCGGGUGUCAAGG | -2.99
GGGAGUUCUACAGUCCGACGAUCUCCUCAAGUCCUGUGCUACACAUCGUAUGUACCGAAUCGGUGGUGGUUUGGAAAGUAUUAUGUUACGCCGUUCGGAUCUGCACUUCCAGCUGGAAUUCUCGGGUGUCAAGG | 0.218
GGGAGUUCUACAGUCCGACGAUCGUCCUGUGCUACACAUCGUAUGUACCGAAUCGGGUUUUUGGGUUUUUGGGGUUUUUGGGAAAGUAUUAUGUUACGCCGUUCGGAUCUGCAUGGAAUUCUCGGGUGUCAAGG | -0.829
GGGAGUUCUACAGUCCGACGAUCGCAGGAAGUAAAAACAAAUGGAAAUGCUUCGGAUAGUGGCAGGGGUGGGGGUUGCUAAGGAAAGGGUGGGAUGGGAGUGGGUAAAGAAAUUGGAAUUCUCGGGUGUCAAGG | 1.54
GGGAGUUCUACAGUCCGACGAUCCACAGACAACACGCACCCACACAGACACAGAGGGAAGGGGUUGGGAUGGGGACAGGGUGCACAGCAGGGCGGGGUAGAAACCCAGCCCCUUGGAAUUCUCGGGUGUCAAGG | 1.05
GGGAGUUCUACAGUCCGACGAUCCCUGUGCUACACAUCGUAUGUACCGAAUCGGGGAGGGGAAAAAAAGGGGAAAAAAAGGGGAAAGUAUUAUGUUACGCCGUUCGGAUCUGCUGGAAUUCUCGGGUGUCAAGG | 0.786

Study 2
Target: Sal-like protein 4, full length isoform B (SALL4, Homo sapiens, UniProt Q9UJQ4-2, residues 1-616)
Method: universal PBM
Molecule type: double-stranded DNA, one strand shown
Sample: in vitro
Concentration: not given
Notes: 8-mer, flanks averaged, mean of replicates
Reading: higher = stronger binding
Strand | E-score
AGGGATAT | 0.22
AAGCCCGT | -0.325
GGTCGGTA | -0.142
ATCATGAC | 0.133
CCTCGAGG | -0.192
GCACACCC | -0.277
AGGACGAG | -0.164
ACGTTCAC | -0.0186
ACTCTCTA | 0.131
CATAGGAC | -0.0198
AAGGGATA | 0.177
GAACACGC | -0.236
CGCAGTAC | -0.202
CTTAGGAC | -0.116
TCCCCGAA | -0.172
CGTCATTA | 0.0629
CTGATAAG | 0.0568
CGCGTGCC | -0.295

Study 3
Target: Hepatocyte nuclear factor 3-alpha (Foxa1, Mus musculus, UniProt P35582, residues 1-468, full length assumed)
Method: EMSA with sequencing
Molecule type: double-stranded DNA, one strand shown
Sample: in vitro
Concentration: 10 and 20 nM
Notes: whole designed probe, mean of two concentrations, ends assumed
Baseline: negative control set to 0
Reading: higher = stronger binding
Target sequence (chain): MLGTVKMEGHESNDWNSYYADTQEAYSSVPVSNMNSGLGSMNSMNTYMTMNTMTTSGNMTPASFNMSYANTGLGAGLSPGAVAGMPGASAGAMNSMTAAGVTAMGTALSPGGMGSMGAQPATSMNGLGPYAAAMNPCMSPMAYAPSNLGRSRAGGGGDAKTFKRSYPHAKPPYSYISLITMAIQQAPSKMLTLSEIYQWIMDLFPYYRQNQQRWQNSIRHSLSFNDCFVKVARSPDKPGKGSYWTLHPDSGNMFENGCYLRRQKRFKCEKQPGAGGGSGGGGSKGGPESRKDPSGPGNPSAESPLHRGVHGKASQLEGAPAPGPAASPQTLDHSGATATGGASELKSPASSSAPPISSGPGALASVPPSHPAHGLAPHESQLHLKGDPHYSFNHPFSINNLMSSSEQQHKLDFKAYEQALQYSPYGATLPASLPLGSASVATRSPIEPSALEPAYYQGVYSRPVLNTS
Strand | normalised bound fraction [ratio]
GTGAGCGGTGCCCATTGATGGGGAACCTGAAAGACTGGCGTAACATGATGAAGAAGGAGGTATTCTGGACCATGTAAAGGACAGCGGATTGCTAAGGTCAACATTTAATGAGTCAGAAAGTCATTTAGAGATGAGTTTGGAATAGTAGGGTCTGGAGATGACGGAAGAGCTGGAATGAATGTTAAACTCAAAAGTGTCAACTCCCATAGGCAGTGGGCATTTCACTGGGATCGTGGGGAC | 0.00882
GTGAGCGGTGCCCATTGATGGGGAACTAAACAAAGCTGGTCGCCCAATGAAGAGGCGGCGGGGGCGGGCGCTGGGCCGGGGAGGCCGGGGGCGGAGCCGGGGGCGGGGCGACCGGGCGGTGTTTACAGACCGGCACATGGCGCTTCCGGTTGACGTTGCTGACAGCTAGTGAGGCTTTAGCCCGCTTCGAGCGCCCGGGGGCGGTAAGGCGCGATCATATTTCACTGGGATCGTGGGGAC | 0.463
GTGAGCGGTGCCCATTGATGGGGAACGCCTTGTTCAATTCTAGAATTTAATCTAGGATGACCCATTGTTTCTATTTGTCACATCTGTTTAGACTTCTCTGGTCTATGACAATTTCTCAGTGTTTGCTTATTTTTCATGAGCTCATAGTTTTGAGGAGTACTCATCAGGTATTTTGTGAAATGTCCCTCAATTTGTATTTGTCTTATGTTTTCTCATAATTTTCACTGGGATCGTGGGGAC | 0.308
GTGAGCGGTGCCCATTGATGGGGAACCACGCGGAGAGGCCACCTGCCCGGGCCAATCTGTACGCTCCGTGATCTTCGCCCGCTCCCCGGCCCCGCGCCCTGGTGTCCCTGCAGTCGCTGAGTAATCTGCGACTGGGAGCCATCTTGGGGCGGAGGACCGATCCCAAGCGAAGTAGTAGTGGCTGCAGCCCGGGTGCCCCCATTCGTAAAGGGGAGCCTCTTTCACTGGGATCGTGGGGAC | -0.0865
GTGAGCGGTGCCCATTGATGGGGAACATCTTCCCCCTCTTCCTTGCCCCACCAGCTCACCTTCCCGGGTTATTTGCACAAAGGAAAATAAATAAAGCCGGCATTCGTTAACCCTCTTCTGGCGCAAACTGCTGTTTGCTCTGCATGAATCATGGTCCTTACGCGACGCCAGGCTCCGGGAGAGCAAAGCACCGTGTCAGGCGCATGATCCGGGGTGGCCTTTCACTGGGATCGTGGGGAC | 0.37
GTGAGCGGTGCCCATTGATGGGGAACATCTTCCCCCTCTTCCTTGCCCCACCAGCTCACCTTCCCGGGTTATTTGCACAAAGGAAAATAAATAAAGCCGGCATTCGTTAACCCTCTTCTGGCGCAAACTGCTGTTTGCTCTGGATGAATCATGGTCCTTTGGCGACGCCAGGCTCCGGGAGAGCAAAGCACCGTGTCAGGGCCATGATCCGGGGTGGCCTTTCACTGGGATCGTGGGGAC | 0.351
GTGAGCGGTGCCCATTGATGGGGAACCGTTTGCCAGCCCAAGATAGGCTGTGACAAAAGGAAGTGAGCCTTATCTATCAGTGGAGGTTGAACAACCAGCAACGTGAGTCATCCGCAAAAGTAATCTGCTGGGGCTAGATGCGGTGGCTCGCGCCTGTAATCCCAGCACTTTAGGAGGCCAAGGCAGGTGGATTACCTGAGGTCAGCCTGACCAACATGGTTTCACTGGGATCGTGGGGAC | -0.0645
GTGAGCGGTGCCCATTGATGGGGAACATCCACGAACCTGGCCCTGTCTGGTAACCACAGTGAACCATCGCAAGATACAGCACTATGTGCCCAGTTGGGCTGGAATAATGACTCACCCAGTGTTGACACATCACATCCTCAGGGACACGGAAGTGTACTTGTTTTTGGAGAGGGACTAGACCTTCATCCTTGAGGTGAAGAAGATTTTCTCTCCAGGGTGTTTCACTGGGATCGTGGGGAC | 0.132

Study 4
Target: RNA binding protein fox-1 homolog 2, RRM domain, GST-SBP tag (RBFOX2, Homo sapiens, UniProt O43251-10, residues 100-194)
Method: RNA Bind-n-Seq
Molecule type: RNA
Sample: in vitro
Concentration: 365 nM
Notes: natural RNA segment, single round, ends assumed
Baseline: no-protein control
Reading: higher = stronger binding
Target sequence (chain): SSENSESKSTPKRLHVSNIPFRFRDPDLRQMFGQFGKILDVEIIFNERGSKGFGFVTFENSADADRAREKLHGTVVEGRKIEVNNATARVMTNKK
Strand | RBNS enrichment (R)
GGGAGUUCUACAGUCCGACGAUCUCUCCACAUAGACUCUUGAAAUAGCCAUUUCAGGGGAGGAAAGGGUUGGGGUUUUCUUUGUUUGUUUGUUUGUUUCCCCCUUUACUACCUGUUCUUGUAGAUCUAGCUCCUGGAAUUCUCGGGUGCCAA | 11.2
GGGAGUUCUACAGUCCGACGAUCACUCAAAAUCUGUUUAUUGGGUUACUGCCCCCAUAAAAAGUAAACAUGACUUUUAAGUAUUUUUUUAUAAACAGCUCAAUAUAAAACAUAGACAGUGUUUGAUUAUUUUCUGGAAUUCUCGGGUGCCAA | 0.732
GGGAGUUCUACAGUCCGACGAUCGGGGAAAAAGAUAUUAACAUCACGUCUUUGUCUCUAGAGCAGUUUUCCGAGAUAUUCCGUAGUACAUAUUUAUUUUUAAACAGCAACAAAGAAAUACAGAUAUAUCUUAAUGGAAUUCUCGGGUGCCAA | 1.01
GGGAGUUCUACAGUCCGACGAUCAAAAUUAUAUAGGUUCUGAUGAAAGCUUCAUAAUUUCACCCUGUGACUAUCCUGAAAAGAAAUAAUAAUCAUUUUAUGAUUGAUGGGCCAAAAAAAGCAAUCAAAGUCUUUGGAAUUCUCGGGUGCCAA | 0.356
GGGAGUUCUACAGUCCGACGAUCGAUCCUGGAGAGGCAGGGAUAGUAAAUAAAUUGCUCUUCCUACCCCAUCCCCCAUCCCCUGACAAAAAGUGACGGCAGCCGUACUGAGUCUGUAAGGCCCAAAGUGGGUAUGGAAUUCUCGGGUGCCAA | 0.487
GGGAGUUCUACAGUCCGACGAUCUGGGCCCGAGGCUAUGGAGCCUUGGCUUUCACUUCUGUGACAAACACAUGCCAUUUCCCCAGCCUCAUUUGCUGGUGUCUGUAGGGUCCUCCCAAGGUGAGCUGAGGGCUUGGAAUUCUCGGGUGCCAA | 0.52
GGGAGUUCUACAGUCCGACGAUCCCAGGGGUCCUACUCGCUUCCCCCCUGCUCAUACCUUGCCUAUGGAGACAUGAGAGGGCAGAAUCCUGCCCCCAGCCCUGGGCUGCUUUCGGGGGUCGGGGGAGGGCUCUUGGAAUUCUCGGGUGCCAA | 0.935
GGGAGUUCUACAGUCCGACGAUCAAAGUCCCCCACUGGACUGCUUCCUCCUUAGCCCCACUGGUAUAAAUACAUCUCUCUCCAAUUUGGCUUCAAUAUGGUCUGUCAUUGUUGGGCAAGAAGGGGAGGUACAAUGGAAUUCUCGGGUGCCAA | 0.294
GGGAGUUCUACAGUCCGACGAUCUUUGUAAAAUUGUCUGUGAAAUAUAAACAUUAAUAUAUAAAGAAAAACCUUGAAGUGCUGUAUAGUGAAGUAUAAAUUAAUGUUUUAUUGAUUUGUGAAGAAUUUAAGACUGGAAUUCUCGGGUGCCAA | 5.26
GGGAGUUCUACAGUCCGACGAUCAGUUUUGAUAGACUCUGAGGAUCAUAUGAACAGGACAUUUUUCAUUUGUGAAUUUAAUGCUAUCUUGUCAAGGUACUUGCUUGUGUCUGAACUCUAGUGCACUUAUCAUUUGGAAUUCUCGGGUGCCAA | 4.12
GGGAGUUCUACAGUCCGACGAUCCAAAGAGGGUAUGGUUAGGUACGGGUCUUCCUGCCUCAUUCCUCUUCCUCUUUGUGUAGGUUUCAGCCACAAAACUGUCAUUCACUCUAGGGGACCCCUACUAAAGGGUAUGGAAUUCUCGGGUGCCAA | 0.235
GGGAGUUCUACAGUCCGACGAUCGUUGCCUGCUUUGUGCUUUCUGCACCAGACAACCUGAUGGAACAUUUGCACCUGAGUUGUACAUUUUUGAAGUGUGCAGGGCAGCCUGGACACAAGCUUAGAUUCUCUAUUGGAAUUCUCGGGUGCCAA | 0.252

Other studies, line by line
Molecule | target | test | test system | setting | how to read | quantity | result
PhoQ, residues 284 288 289 292 302 303 NLMGRA | PhoP, residues 12 14 15 18 19 LYFRQ (Escherichia coli, UniProt P23836) | Sort-seq, measured: YFP reporter | E. coli | PhoQ-PhoP variant library, together with: 10 µM Mg2+ | baseline: high Mg2+ state, higher = stronger signaling | fold induction | 5.03
